Assay results collected from several papers.
Numbered parts are unrelated; each lists some results of a single study. “And” joins repeats or separate records; there may be more than shown.

Set 1
SMILES: Cc1ncsc1-c1ccc(C(CO)NC(=O)C2CC(O)CN2C(=O)C(C(C)C)n2cc(-c3ccc(COc4c(-c5c(C)c(F)cc6[nH]ncc56)c(C5CC5)cc5c(N6CC7CC6CN7)nc(OC6CCOCC6)nc45)cc3)nn2)cc1 (centres unmarked)
| system | conditions | tumour volume |
| --- | --- | --- |
| KP-4 xenograft, mouse | 30 mg/kg twice weekly, day 7 | 226 mm3 and 207 mm3 and 223 mm3 and 268 mm3 |
| PK-1 xenograft, mouse | 30 mg/kg once weekly, day 4 | 160 mm3 and 161 mm3 and 117 mm3 and 138 mm3 and 167 mm3 |
| GP2d xenograft, mouse | 30 mg/kg twice weekly, day 11 | 185 mm3 and 134 mm3 and 196 mm3 and 168 mm3 and 156 mm3 |
| GP5d xenograft, mouse | 30 mg/kg twice weekly, day 0 | 163 mm3 and 215 mm3 and 166 mm3 and 157 mm3 and 189 mm3 |
| mouse, PK-59 xenograft | 10 mg/kg, day 21 | 245 mm3 and 212 mm3 and 278 mm3 and 255 mm3 and 223 mm3 |
| mouse, ASPC1 xenograft | 30 mg/kg once weekly, day 0 | 193 mm3 and 222 mm3 and 184 mm3 and 176 mm3 and 241 mm3 |
| mouse, lung LXFA sample B PDX | 10 mg/kg twice weekly, day 18 | 336 mm3 and 171 mm3 and 53.1 mm3 and 157 mm3 and 274 mm3 and 343 mm3 and 140 mm3 and 120 mm3 |

Set 2 — organism: Arabidopsis thaliana; strain: Col-0; tested at: 25 µg/mL; setting: seed germination
| Structure (SMILES) | root length |
| --- | --- |
| CN1C(=O)C(O)(C(=O)O)Oc2cc(F)ccc21 (centres unmarked) | 0.838 cm |
| O=C(O)C1(O)Oc2cc(Cl)ccc2N(Cc2ccccc2)C1=O (centres unmarked) | 1.08 cm |
| CC(C)(C)c1ccc(Oc2ccc3c(c2)OC(O)(C(=O)O)C(=O)N3Cc2ccccc2)cc1 (centres unmarked) | 0.58 cm |
| CCCN1C(=O)C(O)(C(=O)O)Oc2cc(F)ccc21 (centres unmarked) | 0.581 cm |
| O=C(O)C1Oc2cc(F)ccc2N(Cc2ccccc2)C1=O (centres unmarked) | 0.949 cm |
| Cc1ccc2c(c1)OC(O)(C(=O)O)C(=O)N2Cc1ccccc1 (centres unmarked) | 1.09 cm |
| O=C(O)C1(O)Oc2cc(Br)ccc2N(Cc2ccccc2)C1=O (centres unmarked) | 0.761 cm |
| CCN1C(=O)C(O)(C(=O)O)Oc2cc(F)ccc21 (centres unmarked) | 0.756 cm |
| CC(C)=CCN1C(=O)C(O)(C(=O)O)Oc2cc(F)ccc21 (centres unmarked) | 1.07 cm |
| O=C(O)C1(O)Oc2ccccc2N(Cc2ccccc2)C1=O (centres unmarked) | 1.11 cm |
| COc1ccc2c(c1)OC(O)(C(=O)O)C(=O)N2Cc1ccccc1 (centres unmarked) | 1.04 cm |

Set 3
SMILES: Cc1ccc(O)c(C)c1-c1cnc2[nH]c(-c3cnc(N4CCC5(CC4)CC(N4CCN(c6ccc(NC7CCC(=O)NC7=O)cc6F)CC4)CO5)nc3)cc2c1C#N (centres unmarked)
PKMYT1: Membrane-associated tyrosine- and threonine-specific cdc2-inhibitory kinase (PKMYT1, Homo sapiens, UniProt Q99640)
UniProt Q99640, sequence (whole entry, looked up): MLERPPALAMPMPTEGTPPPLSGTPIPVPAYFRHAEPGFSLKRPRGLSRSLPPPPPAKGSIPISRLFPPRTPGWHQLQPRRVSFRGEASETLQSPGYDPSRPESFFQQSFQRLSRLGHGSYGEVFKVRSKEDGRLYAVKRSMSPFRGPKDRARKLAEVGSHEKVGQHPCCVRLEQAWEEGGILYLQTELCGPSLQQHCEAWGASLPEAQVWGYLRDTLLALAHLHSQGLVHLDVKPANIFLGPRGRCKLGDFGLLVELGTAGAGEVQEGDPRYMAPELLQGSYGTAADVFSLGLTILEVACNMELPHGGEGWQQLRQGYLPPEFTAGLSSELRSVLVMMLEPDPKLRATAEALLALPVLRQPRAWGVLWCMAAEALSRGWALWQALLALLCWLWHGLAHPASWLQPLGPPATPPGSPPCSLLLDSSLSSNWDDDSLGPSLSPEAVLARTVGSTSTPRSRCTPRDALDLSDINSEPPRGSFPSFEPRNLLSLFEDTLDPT
| tested on | test | conditions | inhibition [%] |
| --- | --- | --- | --- |
| HuCCT-1 | measured: CDK1 phospho-Thr14 | 0.15 nM | 7.6 |
| MDA-MB-157 | measured: CDK1 phospho-Thr14 | 0.05 nM | -41.1 |
| PKMYT1 | cell-free assay, inhibitor, TR-FRET | 1.37 nM | 40.3 |
| MDA-MB-157 | measured: CDK1 phospho-Thr14 | 111.11 nM | 25 |
| HCC1599 | measured: CDK1 phospho-Thr14 | 1000 nM | 80.2 |
| MDA-MB-157 | measured: CDK1 phospho-Thr14 | 0.46 nM | -24.6 |
| PKMYT1 | – | 0.00412 µM | 43.1 |
| HuCCT-1 | measured: CDK1 phospho-Thr14 | 333.33 nM | 84.9 |
| PKMYT1 | cell-free assay, inhibitor, TR-FRET | 4.12 nM | 44.3 |

Set 4 — cell line: U-87 MG; tested at: concentration not given; baseline: DMSO
SMILES: CCN1/C(=C/C=C2\CCCC(/C=C/C3=[N+](CC)c4ccccc4C3(C)C)=C2NCCCCCCCCN2CCC(Nc3nc4ccccc4n3Cc3ccc(F)cc3)CC2)C(C)(C)c2ccccc21
| test | log2 fold change |
| --- | --- |
| measured: CCDC15 mRNA | -1.16 |
| measured: CAV1 mRNA | -1.79 |
| measured: FAAP24 mRNA | -0.835 |
| measured: CALML4 mRNA | -1.61 |
| measured: TMEM177 mRNA | -1.03 |
| measured: ARL8A mRNA | 1.23 |
| measured: NIPAL1 mRNA | 2.05 |
| measured: RDM1 mRNA | -2.65 |
| measured: RSRC2 mRNA | 1.02 |
| measured: RAB5A mRNA | 0.851 |
| measured: LMNB2 mRNA | -1.2 |

Some of these lines once more (set 2):
| Structure (SMILES) | root length |
| --- | --- |
| O=C(O)C1Oc2cc(F)ccc2N(Cc2ccccc2)C1=O (centres unmarked) | 0.949 cm |
| Cc1ccc2c(c1)OC(O)(C(=O)O)C(=O)N2Cc1ccccc1 (centres unmarked) | 1.09 cm |
| O=C(O)C1(O)Oc2cc(Br)ccc2N(Cc2ccccc2)C1=O (centres unmarked) | 0.761 cm |
| CCN1C(=O)C(O)(C(=O)O)Oc2cc(F)ccc21 (centres unmarked) | 0.756 cm |
| CC(C)=CCN1C(=O)C(O)(C(=O)O)Oc2cc(F)ccc21 (centres unmarked) | 1.07 cm |
| O=C(O)C1(O)Oc2ccccc2N(Cc2ccccc2)C1=O (centres unmarked) | 1.11 cm |
